# Assay results of several laboratories.
# Every numbered part comes from another study and shows a few of its results, in no order.

# Study 1
# Target: Histone acetyltransferase KAT6A, winged helix 1, GST fusion (KAT6A, Homo sapiens, UniProt Q92794, residues 1-85)
# Method: protein binding microarray
# Form: double-stranded DNA, one strand shown
# Matrix: in vitro
# Tested at: not given
# Notes: 8-mer, flanks averaged, mean of 2 arrays, mostly near background
# Reference: not given
# Reading: higher = stronger binding
# Target sequence (chain): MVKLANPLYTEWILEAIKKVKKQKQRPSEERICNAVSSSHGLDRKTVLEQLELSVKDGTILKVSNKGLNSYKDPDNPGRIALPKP
Oligonucleotide,E-score
AAGTCGCA,0.0832
CGAGGACC,0.0971
CCGCTATA,0.246
GTTACGGA,0.269
ACAAGCCA,-0.19
CGAGTGGA,-0.15
ACTGTAAC,-0.0647
GGCACCAC,0.131
ATGTACTA,-0.0591
GAGATGTA,-0.135
CGTGGAGC,0.172
AGATCGAT,-0.141
CGGAGAAG,0.0815
ACCAGCAT,-0.248
ATCCACAT,-0.163
CAGATACC,-0.0817
ATCAAAGG,0.00934
AGTTACTG,-0.0555
CGTTTTGC,0.0577
CTTACCGA,0.0258
GGAGATTA,0.0688
CATAACAG,-0.0779
AATCTACC,0.0246

# Study 2
# Target: Interferon regulatory factor 7, full length, phosphomimetic (IRF7, Homo sapiens, UniProt Q92985, residues 1-503, S471D/S472D/S475D/S476D/S477D/S483D/S484D/S487D)
# Method: protein-binding microarray
# Form: double-stranded DNA, one strand shown
# Matrix: in vitro
# Tested at: 2200 nM top
# Notes: 60-bp whole probe
# With: salmon DNA 0.4 mg/ml
# Reference: random background probes
# Reading: higher = stronger binding
# All sequences stand within: GCCTAGCAC … GTCTTGATTCGCTTGACGCTGCTG
# Residues (chain): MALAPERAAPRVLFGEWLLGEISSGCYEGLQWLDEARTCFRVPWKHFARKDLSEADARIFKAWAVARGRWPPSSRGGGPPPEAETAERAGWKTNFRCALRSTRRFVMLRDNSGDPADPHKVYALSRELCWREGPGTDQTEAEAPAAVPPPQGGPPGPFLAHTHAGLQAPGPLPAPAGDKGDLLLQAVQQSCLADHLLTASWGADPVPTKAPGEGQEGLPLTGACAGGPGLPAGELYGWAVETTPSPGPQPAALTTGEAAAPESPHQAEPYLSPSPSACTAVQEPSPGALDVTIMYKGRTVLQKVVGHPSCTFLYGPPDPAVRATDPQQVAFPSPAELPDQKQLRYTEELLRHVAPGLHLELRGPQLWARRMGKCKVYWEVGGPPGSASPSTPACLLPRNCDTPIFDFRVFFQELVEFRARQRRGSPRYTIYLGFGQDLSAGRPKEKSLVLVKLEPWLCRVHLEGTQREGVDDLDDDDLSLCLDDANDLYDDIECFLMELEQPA
Oligonucleotide,fitted relative affinity
GACGGTATCGGTTTTGGGACGTGCTAG,1.61 z-score
TTAGGTTTCGACTATAGGTTAGTGCTA,2.08 z-score
TCATTATTTATTTTTACACTGTGCTAG,1.07 z-score
TTAGATTTCTGGTTTCGATTAGTGCTA,5.38 z-score
GACGGACTGGGGTTACGGGACGTGCTA,-0.765 z-score
GACGGTCTCCTTATCCTGAAGTGCTAG,0.911 z-score
TTAGAACTGAGTCTCGATTAGTGCTAG,-0.212 z-score
TCAAAACTCTTTATTTAACTGTGCTAG,-0.274 z-score
GACGATTTCGGGACTGGAGACGTGCTA,1.3 z-score
GACGGTTCCCTTTTCCGGACGTGCTAG,2.62 z-score
TCAGCTACACATCTCACACTGTGCTAG,0.964 z-score
GATGATATCGGGTTTCGAGACGTGCTA,1.59 z-score
GACGGACTGGGTTTCGGGAGGTGCTAG,0.271 z-score
GACGGTTACGGGTTTCGGGACGTGCTA,1.79 z-score
CACGGTCTCCTTATCCTGACGTGCTAG,1.13 z-score
TTAGATCTCAGGTTCGATTAGTGCTAG,0.619 z-score
GCCGGTATCGGGTATCGGGACGTGCTA,-0.0415 z-score
GACGAACTGAGTCTCGACACGTGCTAG,0.0972 z-score
GACGGACAGCTTATCCTGACGTGCTAG,0.0655 z-score

# Study 3
# Target: Sal-like protein 4, full length isoform A (SALL4, Homo sapiens, UniProt Q9UJQ4, residues 1-1053)
# Sequence of UniProt Q9UJQ4 (whole entry, looked up): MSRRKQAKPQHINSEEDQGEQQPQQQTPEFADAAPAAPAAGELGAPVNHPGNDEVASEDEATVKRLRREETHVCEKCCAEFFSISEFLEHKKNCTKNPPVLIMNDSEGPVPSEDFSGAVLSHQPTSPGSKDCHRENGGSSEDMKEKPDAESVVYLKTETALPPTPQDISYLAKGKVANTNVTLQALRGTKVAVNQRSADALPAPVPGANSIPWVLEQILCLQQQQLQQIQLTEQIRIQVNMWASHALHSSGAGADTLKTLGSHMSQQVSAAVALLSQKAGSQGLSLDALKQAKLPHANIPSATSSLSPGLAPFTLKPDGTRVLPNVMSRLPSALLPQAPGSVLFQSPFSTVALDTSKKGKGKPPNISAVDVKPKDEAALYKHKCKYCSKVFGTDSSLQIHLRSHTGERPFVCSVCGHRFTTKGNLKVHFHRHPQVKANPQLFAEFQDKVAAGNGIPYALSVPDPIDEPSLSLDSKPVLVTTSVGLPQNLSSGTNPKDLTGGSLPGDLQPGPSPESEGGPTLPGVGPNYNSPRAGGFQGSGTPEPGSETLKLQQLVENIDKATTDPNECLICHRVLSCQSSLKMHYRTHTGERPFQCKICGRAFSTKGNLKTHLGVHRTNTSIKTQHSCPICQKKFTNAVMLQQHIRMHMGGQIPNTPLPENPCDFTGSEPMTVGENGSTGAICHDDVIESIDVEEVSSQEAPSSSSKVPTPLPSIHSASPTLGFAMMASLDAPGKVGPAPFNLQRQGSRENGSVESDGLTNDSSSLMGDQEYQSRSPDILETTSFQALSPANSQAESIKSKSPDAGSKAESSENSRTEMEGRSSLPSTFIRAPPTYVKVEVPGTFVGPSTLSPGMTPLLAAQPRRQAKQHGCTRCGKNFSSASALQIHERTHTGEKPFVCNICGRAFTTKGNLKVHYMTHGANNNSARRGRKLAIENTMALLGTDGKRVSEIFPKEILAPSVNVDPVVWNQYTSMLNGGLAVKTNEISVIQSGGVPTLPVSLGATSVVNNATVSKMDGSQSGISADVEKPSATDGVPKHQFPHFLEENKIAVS
# Method: universal PBM
# Form: double-stranded DNA, one strand shown
# Matrix: in vitro
# Tested at: 600 nM
# Notes: 8-mer, flanks averaged, mean of replicates
# Reading: higher = stronger binding
Oligonucleotide,E-score
GATACCCC,-0.194
CATTGGAC,-0.0252
AACGCCAG,-0.219
GCGTTCGA,-0.167
GGGACACA,-0.209
GGACGCGA,-0.15
CCCGTTAC,0.102
CCGAGCAA,-0.327
CGGCCTCA,-0.236
GGTCGTGA,-0.0777
AGGAATTC,-0.0209
GATCGCGC,-0.185
AGCACAAG,-0.0229
CATCGTTA,0.0871
GCATAAGA,0.142
CGGAACGA,-0.0479
AGCTGACA,-0.102
GCCATCGC,-0.219
CGAGTTAA,-0.0272
AAGCCCGC,-0.228
TATGAGAA,0.307
TCTAGGAA,0.139
GCAGCGTA,-0.114
ATACCTTA,0.206
AGCCGTTG,-0.186

# Study 4
# Target: Ras GTPase-activating protein-binding protein 1, RRM domain (G3BP1, Homo sapiens, UniProt Q13283)
# Sequence of UniProt Q13283 (whole entry, looked up): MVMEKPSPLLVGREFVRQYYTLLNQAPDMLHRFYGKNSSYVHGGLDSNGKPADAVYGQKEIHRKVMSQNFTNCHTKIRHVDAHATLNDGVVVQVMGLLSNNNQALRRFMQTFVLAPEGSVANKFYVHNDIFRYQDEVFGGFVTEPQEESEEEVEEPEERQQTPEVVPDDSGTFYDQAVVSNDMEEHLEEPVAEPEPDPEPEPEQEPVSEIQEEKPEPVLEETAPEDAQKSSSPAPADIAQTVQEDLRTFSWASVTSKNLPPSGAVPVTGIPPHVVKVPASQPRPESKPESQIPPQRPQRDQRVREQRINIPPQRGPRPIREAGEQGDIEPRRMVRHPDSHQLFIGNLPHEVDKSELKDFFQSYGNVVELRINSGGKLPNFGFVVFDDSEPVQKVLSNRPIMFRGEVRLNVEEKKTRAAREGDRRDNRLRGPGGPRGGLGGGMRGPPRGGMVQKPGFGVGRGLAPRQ
# Method: RNA Bind-n-Seq
# Form: RNA
# Matrix: in vitro
# Tested at: 1 µM
# Notes: whole 134-nt RNA, ends assumed
# With: 150 mM KCl
# Reference: input library
# Reading: higher = stronger binding
# All sequences stand within: GGGAGUUCUACAGUCCGACGAUC … UGGAAUUCUCGGGUGUCAAGG
Oligonucleotide,log2 enrichment
AAGUCCUGUGCUACACAUCGUAUGUACCGAAUCGGGAAAGGGUUUUUUUGGGAGGGAAAGUAUUAUGUUACGCCGUUCGGAUCUGCACUU,0.647
UCAAGUCCUGUGCUACACAUCGUAUGUACCGAAUCGGGUGGGAAAAAGGGAGGGAAAGUAUUAUGUUACGCCGUUCGGAUCUGCACUUCC,0.727
CCUGUGCUACACAUCGUAUGUACCGAAUCGGGGUGGGGUUUUUUUGGGGAAAAAAAGGGGAAAGUAUUAUGUUACGCCGUUCGGAUCUGC,0.384
UCCUGUGCUACACAUCGUAUGUACCGAAUCGGGGAAAAAAGGGAAAAAAGGAAAAAAGGGAAAGUAUUAUGUUACGCCGUUCGGAUCUGC,0.0575
CAAGUCCUGUGCUACACAUCGUAUGUACCGAAUCGGGGAAAGGGGAGGGGUGGGGAAAGUAUUAUGUUACGCCGUUCGGAUCUGCACUUC,1.18
CACAGACAACACGCACCCACACAGACACAGAGGGAAGGGGUUGGGAUGGGGACAGGGUGCACAGCAGGGCGGGGUAGGACCCCAGCGCCU,-0.252
CCUGUGCUACACAUCGUAUGUACCGAAUCGGGUUUUUUUGGUUUUUUUGGGUUUUUUUGGAAAGUAUUAUGUUACGCCGUUCGGAUCUGC,-0.113
AGUCCUGUGCUACACAUCGUAUGUACCGAAUCGGGAAAAAAAGGGUGGGUUUUUGGGAAAGUAUUAUGUUACGCCGUUCGGAUCUGCACU,0.589
UCCUGUGCUACACAUCGUAUGUACCGAAUCGGGGAAAAAGGGGAAAAAGGGGUUUGGGGAAAGUAUUAUGUUACGCCGUUCGGAUCUGCA,1.09

# Repeated from above (study 2):
Oligonucleotide,fitted relative affinity
GACGAACTGAGTCTCGACACGTGCTAG,0.0972 z-score
GACGGACTGGGGTTACGGGACGTGCTA,-0.765 z-score
TTAGATCTCAGGTTCGATTAGTGCTAG,0.619 z-score
GCCGGTATCGGGTATCGGGACGTGCTA,-0.0415 z-score
GACGGACTGGGTTTCGGGAGGTGCTAG,0.271 z-score
CACGGTCTCCTTATCCTGACGTGCTAG,1.13 z-score
TTAGATTTCTGGTTTCGATTAGTGCTA,5.38 z-score
TCAGCTACACATCTCACACTGTGCTAG,0.964 z-score
TCAAAACTCTTTATTTAACTGTGCTAG,-0.274 z-score
TCATTATTTATTTTTACACTGTGCTAG,1.07 z-score
GACGGTTACGGGTTTCGGGACGTGCTA,1.79 z-score
